Results collected from several papers.
Numbered parts are unrelated; each lists some results of a single study.

Series 1
Target: RING finger protein unkempt homolog, zinc fingers 1-6, GST-SBP tag (UNK, Homo sapiens, UniProt Q9C0B0, residues 30-357)
UniProt Q9C0B0, sequence (30-357, looked up): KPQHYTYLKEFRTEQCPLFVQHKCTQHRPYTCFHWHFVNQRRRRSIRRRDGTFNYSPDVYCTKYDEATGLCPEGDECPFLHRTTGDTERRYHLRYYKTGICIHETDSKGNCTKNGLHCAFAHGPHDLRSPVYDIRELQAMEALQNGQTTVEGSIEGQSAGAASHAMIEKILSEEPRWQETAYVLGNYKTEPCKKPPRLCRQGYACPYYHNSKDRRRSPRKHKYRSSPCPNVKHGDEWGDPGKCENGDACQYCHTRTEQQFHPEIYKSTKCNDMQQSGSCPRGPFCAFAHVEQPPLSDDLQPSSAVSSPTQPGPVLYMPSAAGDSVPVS
Method: RNA Bind-n-Seq
Form: RNA
Matrix: in vitro
Concentration: not given
Notes: RNA with constant flanks, human-mouse chimeric sites, ends assumed
Reference: input RNA pool
Direction: higher = stronger binding
Constant ends, left off below: GGGAGUUCUACAGUCCGACGAUC … CAACAGAGGAUUGAGCAUCA
For `GUAUACGGUUAUCGAGGAAAGGACUGUAGAGCUAAUGUAUACCUGCUUCCCACAGGGGAGAUAGUUUAUUUUAUCGCCUCAGUGGUAGUACUAUUUAAUUAUGAGGAGAGGACUCAGCGA`, the bound/input enrichment was 3.73 ratio.
`GAUCAUGAACCACCAUCAGAAAUGAAGAUGAGAUUACCCAGACGAGCCCAAAACCGCGCGCUACAGAAAAGUAAACUUUAACCUUGCGAGUUCCUUAAUGAAGAUACAAGUUAAGAGAGC` gave a bound/input enrichment of 0.197 ratio.
For `CCACCAGGAUCCCAGAAACAUGACCCUUGCUGCCUACAAAGAGAAGAUGAAGGAGCUCCCGCUGGUGUCCUUGUUCUGCUCCUGCUUCUUGUCUGAUCCCCUGAAUAAGUCGUCCUACAA`, the bound/input enrichment was 0.237 ratio.
For `CUGGCCUGGCCCUCCCCAGGGGCCUCCUUUCGUAUAGUCACUGCUUCUGCAUCAGAUACUUUCAGCUGCAACUCCCUGCAGGGUGGGGCACCCAUUUCAGGCAGAAGUUGGUGCCCCCCU`, the bound/input enrichment was 0.162 ratio.
`AAUAGAGGAUCCACCUCCCAAAGUGCUGGGAGUAAAGGUGUGGCCACCACACCUAACUUGAUGGAUAUUUUAUAAAGUUAAUAUGAAUCUUCCUGUUCGUCCAGGGAAGAAAGAUUUGUU` gave a bound/input enrichment of 0.648 ratio.

Series 2
Target: Ras GTPase-activating protein-binding protein 1, RRM domain (G3BP1, Homo sapiens, UniProt Q13283)
UniProt Q13283, sequence (whole entry, looked up): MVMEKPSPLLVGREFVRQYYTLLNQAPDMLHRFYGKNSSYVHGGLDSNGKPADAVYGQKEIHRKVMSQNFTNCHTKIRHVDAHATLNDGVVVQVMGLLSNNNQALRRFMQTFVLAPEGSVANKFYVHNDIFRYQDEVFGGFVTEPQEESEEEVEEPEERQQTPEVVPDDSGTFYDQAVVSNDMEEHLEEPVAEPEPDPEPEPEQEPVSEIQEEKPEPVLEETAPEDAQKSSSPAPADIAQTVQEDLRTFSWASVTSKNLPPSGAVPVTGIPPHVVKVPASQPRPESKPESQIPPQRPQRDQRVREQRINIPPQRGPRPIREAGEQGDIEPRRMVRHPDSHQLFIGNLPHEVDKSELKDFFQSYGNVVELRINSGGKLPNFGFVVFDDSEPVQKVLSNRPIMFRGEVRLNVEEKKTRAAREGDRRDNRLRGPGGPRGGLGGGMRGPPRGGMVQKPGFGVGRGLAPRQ
Method: RNA Bind-n-Seq
Form: RNA
Matrix: in vitro
Concentration: 1 µM
Notes: whole 134-nt RNA, ends assumed
Added: 150 mM KCl
Reference: input library
Direction: higher = stronger binding
Constant ends, left off below: GGGAGUUCUACAGUCCGACGAUC … UGGAAUUCUCGGGUGUCAAGG
The log2 enrichment of `CCUGUGCUACACAUCGUAUGUACCGAAUCGGGGAAAAAGGGGUUUGGGGUUUUUUUGGGGAAAGUAUUAUGUUACGCCGUUCGGAUCUGC` is reported as 0.827.
`CCUGUGCUACACAUCGUAUGUACCGAAUCGGGGUUUUUGGGGUUUGGGGUUUUUUUGGGGAAAGUAUUAUGUUACGCCGUUCGGAUCUGC` has a log2 enrichment of 1.05.
`UGGGAGGUGGAUUUUGUUUAUUUUUUUAGCUGAUUUCCAGGGGUGGGAAUUUUUUUUUAAUAUGUGUCAUGAAUAAAGUUGUUUUUGAAA` has a log2 enrichment of 1.94.
For `ACCAUGCAGGUGGGCAUCUUUGGUAAGUGGGGCAAGGGGGGGAUAGGGAGGGGGGUAACACUUUGGGAACAGGUGGUCCCAGGUCGUUUC`, the log2 enrichment was -0.542.
For `UCAAGUCCUGUGCUACACAUCGUAUGUACCGAAUCGGUUGGGGUUGGGGUUGGGGAAAGUAUUAUGUUACGCCGUUCGGAUCUGCACUUC`, the log2 enrichment was 0.542.
The log2 enrichment of `GUCCUGUGCUACACAUCGUAUGUACCGAAUCGGGAAAAAAAGGGUGGGAAAAAAAGGGAAAGUAUUAUGUUACGCCGUUCGGAUCUGCAC` is reported as 0.268.
`CAAGUCCUGUGCUACACAUCGUAUGUACCGAAUCGGGAAAGGGUGGGAAAAAGGGAAAGUAUUAUGUUACGCCGUUCGGAUCUGCACUUC` has a log2 enrichment of 0.846.
The log2 enrichment of `UCAAGUCCUGUGCUACACAUCGUAUGUACCGAAUCGGCCCGGGGCCCGGGCCCGGAAAGUAUUAUGUUACGCCGUUCGGAUCUGCACUUC` is reported as -0.565.
For `GUCCUGUGCUACACAUCGUAUGUACCGAAUCGGGAAAAAGGGAAAAAGGAAAAAGGGGAAAGUAUUAUGUUACGCCGUUCGGAUCUGCAC`, the log2 enrichment was 0.0191.

Series 3
Target: Histone acetyltransferase KAT6A, both winged helices, GST fusion (KAT6A, Homo sapiens, UniProt Q92794, residues 1-181)
Method: protein binding microarray
Form: double-stranded DNA, one strand shown
Matrix: in vitro
Concentration: not given
Notes: 8-mer, flanks averaged, mean of 2 arrays, mostly near background
Reference: not given
Direction: higher = stronger binding
Residues (chain): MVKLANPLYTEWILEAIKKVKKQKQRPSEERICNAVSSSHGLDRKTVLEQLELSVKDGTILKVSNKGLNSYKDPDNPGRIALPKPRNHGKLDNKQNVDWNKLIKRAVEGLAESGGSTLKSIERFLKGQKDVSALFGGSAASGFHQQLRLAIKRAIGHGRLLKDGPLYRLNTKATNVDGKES
`AAGGGAGA` has an E-score of -0.255.
With `CGATCCGA` the E-score was 0.0597.
With `CTCATAAG` the E-score was -0.301.
`CTAAGAAC` gave an E-score of -0.0782.
For `GGCCTCAC`, the E-score was -0.0191.
The E-score of `AGATGTCC` is reported as 0.0537.
For `CTGAATTA`, the E-score was -0.0157.
With `GGGGCTTA` the E-score was -0.0961.
For `GCTCTCCC`, the E-score was 0.0411.
`AAACCCAC` has an E-score of -0.0134.
The E-score of `AGGTACGC` is reported as 0.134.

Other studies, line by line
`PhoQ, residues 284 288 289 292 302 303 GTAMQF` has a fold induction of 3.04 (PhoP, residues 12 14 15 18 19 VHTVL (Escherichia coli, UniProt P23836); Sort-seq, refers to: YFP reporter; E. coli; PhoQ-PhoP variant library, added: 10 µM Mg2+; reference: high Mg2+ state, higher = stronger signaling).

Excerpt of the above (series 2):
`CAAGUCCUGUGCUACACAUCGUAUGUACCGAAUCGGGAAAGGGUGGGAAAAAGGGAAAGUAUUAUGUUACGCCGUUCGGAUCUGCACUUC` has a log2 enrichment of 0.846.
The log2 enrichment of `GUCCUGUGCUACACAUCGUAUGUACCGAAUCGGGAAAAAAAGGGUGGGAAAAAAAGGGAAAGUAUUAUGUUACGCCGUUCGGAUCUGCAC` is reported as 0.268.
The log2 enrichment of `UCAAGUCCUGUGCUACACAUCGUAUGUACCGAAUCGGCCCGGGGCCCGGGCCCGGAAAGUAUUAUGUUACGCCGUUCGGAUCUGCACUUC` is reported as -0.565.
